Assay results of several laboratories.
Numbered parts are unrelated; each lists some results of a single study.
UniProt P51813, sequence (whole entry, looked up): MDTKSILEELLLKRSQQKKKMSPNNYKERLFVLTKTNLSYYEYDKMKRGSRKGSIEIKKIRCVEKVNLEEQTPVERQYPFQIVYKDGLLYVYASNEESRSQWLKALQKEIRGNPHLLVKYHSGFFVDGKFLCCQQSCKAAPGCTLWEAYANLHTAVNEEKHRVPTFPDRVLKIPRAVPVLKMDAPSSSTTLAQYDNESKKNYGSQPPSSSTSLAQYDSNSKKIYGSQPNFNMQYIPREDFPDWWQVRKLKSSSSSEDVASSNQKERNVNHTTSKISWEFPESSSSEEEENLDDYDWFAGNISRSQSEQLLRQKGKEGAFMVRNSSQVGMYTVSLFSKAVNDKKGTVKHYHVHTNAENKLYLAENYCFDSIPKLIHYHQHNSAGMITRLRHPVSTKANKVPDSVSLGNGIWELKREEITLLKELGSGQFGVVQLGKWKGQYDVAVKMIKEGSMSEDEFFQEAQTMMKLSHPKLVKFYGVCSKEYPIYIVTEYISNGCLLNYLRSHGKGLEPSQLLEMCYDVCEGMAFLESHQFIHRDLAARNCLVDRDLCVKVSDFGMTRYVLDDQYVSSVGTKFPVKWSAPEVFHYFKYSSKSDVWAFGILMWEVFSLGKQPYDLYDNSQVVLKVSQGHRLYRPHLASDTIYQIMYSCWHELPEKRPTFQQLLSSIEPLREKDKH
UniProt O00329, sequence (whole entry, looked up): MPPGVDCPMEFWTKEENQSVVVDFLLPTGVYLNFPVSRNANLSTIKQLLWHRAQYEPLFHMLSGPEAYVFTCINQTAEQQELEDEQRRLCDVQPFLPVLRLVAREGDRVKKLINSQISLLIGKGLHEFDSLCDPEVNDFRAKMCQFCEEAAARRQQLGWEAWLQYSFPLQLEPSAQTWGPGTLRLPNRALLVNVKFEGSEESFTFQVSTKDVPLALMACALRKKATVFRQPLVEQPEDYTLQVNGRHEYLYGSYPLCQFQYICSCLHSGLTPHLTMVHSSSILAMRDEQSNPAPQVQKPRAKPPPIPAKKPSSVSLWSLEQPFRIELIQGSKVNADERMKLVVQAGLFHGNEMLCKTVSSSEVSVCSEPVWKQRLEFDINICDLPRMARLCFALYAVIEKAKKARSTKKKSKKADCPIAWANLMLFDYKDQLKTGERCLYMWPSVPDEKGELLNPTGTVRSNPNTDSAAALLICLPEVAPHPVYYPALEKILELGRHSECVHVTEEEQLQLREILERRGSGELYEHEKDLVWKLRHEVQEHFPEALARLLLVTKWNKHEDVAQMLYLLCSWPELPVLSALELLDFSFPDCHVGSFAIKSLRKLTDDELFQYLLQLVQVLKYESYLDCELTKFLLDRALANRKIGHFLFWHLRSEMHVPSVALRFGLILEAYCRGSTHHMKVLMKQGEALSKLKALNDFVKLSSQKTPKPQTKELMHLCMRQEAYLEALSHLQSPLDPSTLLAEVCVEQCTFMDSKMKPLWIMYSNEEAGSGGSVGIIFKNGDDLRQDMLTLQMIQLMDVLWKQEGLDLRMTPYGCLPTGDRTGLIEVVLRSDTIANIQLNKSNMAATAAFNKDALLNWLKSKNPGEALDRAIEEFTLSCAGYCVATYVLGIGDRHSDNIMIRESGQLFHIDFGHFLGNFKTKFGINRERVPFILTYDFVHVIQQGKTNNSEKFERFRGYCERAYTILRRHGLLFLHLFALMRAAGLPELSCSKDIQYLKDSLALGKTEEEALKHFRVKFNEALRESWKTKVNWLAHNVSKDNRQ
UniProt Q05655, sequence (whole entry, looked up): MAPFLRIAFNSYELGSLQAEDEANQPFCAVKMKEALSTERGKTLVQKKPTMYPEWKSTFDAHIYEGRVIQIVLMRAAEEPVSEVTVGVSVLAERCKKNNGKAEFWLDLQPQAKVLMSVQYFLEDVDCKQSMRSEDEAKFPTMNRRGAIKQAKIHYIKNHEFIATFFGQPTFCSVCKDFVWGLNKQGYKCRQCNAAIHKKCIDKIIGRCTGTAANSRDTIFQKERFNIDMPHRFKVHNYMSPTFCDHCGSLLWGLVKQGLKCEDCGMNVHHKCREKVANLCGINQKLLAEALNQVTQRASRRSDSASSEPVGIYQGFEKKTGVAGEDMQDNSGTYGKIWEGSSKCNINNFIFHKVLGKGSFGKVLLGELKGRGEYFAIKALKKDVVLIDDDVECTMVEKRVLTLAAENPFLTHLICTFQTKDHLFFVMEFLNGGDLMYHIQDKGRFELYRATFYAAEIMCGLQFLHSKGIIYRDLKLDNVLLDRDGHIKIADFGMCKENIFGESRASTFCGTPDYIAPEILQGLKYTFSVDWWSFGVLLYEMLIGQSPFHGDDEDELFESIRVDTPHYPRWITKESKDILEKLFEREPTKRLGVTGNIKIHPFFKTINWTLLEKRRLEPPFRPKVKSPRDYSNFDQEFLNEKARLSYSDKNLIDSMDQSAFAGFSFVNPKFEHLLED
UniProt O76039, sequence (whole entry, looked up): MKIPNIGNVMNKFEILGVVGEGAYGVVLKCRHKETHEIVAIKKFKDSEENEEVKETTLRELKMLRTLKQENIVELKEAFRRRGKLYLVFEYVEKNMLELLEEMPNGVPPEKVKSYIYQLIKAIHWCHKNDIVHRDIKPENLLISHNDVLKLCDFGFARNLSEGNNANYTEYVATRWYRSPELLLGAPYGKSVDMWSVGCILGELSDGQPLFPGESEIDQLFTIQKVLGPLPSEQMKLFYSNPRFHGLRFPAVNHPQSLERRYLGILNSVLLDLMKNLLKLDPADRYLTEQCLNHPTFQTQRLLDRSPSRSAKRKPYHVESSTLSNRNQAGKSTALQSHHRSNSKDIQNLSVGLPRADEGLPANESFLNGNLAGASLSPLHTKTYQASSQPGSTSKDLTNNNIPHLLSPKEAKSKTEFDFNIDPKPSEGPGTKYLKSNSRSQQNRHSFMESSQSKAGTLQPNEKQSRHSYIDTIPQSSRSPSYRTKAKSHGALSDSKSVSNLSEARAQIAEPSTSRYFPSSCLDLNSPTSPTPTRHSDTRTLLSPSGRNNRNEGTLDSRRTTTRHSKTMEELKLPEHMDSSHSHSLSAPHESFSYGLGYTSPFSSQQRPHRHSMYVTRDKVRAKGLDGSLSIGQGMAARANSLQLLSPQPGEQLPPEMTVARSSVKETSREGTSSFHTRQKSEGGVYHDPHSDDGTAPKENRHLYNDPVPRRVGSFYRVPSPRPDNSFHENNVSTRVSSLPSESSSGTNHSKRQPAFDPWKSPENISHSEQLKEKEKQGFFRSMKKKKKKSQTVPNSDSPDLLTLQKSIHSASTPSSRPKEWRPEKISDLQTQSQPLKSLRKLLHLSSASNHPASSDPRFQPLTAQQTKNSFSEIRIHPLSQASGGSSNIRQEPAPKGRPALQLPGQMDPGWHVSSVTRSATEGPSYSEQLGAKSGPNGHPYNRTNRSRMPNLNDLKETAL
UniProt Q08345, sequence (whole entry, looked up): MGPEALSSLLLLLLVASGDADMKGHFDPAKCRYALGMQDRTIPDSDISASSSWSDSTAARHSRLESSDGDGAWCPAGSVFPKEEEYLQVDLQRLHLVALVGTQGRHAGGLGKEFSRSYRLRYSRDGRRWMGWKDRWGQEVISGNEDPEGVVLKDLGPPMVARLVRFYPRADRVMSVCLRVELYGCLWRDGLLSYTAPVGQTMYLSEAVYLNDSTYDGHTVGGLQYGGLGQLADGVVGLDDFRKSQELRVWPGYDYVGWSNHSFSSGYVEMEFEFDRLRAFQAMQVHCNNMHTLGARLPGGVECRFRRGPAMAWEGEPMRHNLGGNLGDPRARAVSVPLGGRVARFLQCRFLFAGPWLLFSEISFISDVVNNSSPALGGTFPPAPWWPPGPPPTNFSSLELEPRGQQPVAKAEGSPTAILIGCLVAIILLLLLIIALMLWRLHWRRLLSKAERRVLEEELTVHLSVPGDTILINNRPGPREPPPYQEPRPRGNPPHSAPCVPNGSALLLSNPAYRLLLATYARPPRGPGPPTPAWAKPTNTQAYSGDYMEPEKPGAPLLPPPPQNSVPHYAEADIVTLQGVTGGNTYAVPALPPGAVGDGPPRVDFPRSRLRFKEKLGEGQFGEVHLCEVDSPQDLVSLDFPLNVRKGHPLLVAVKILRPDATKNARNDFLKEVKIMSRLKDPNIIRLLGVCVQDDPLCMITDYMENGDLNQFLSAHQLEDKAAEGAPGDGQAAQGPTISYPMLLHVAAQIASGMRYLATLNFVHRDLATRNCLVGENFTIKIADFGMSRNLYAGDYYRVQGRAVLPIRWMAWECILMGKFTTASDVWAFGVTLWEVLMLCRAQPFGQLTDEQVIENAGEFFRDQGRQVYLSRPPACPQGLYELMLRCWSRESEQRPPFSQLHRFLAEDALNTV

Block 1
Target: Max dimerization protein 1, bHLH-zipper, MAX partner unstated (MXD1, Homo sapiens, UniProt Q05195, residues 56-136)
Method: protein-binding microarray
Form: double-stranded DNA, one strand shown
Matrix: in vitro
Concentration: not given
Notes: k-mer, scored over probes, only values ≥0.25
Direction: higher = stronger binding
Construct (chain): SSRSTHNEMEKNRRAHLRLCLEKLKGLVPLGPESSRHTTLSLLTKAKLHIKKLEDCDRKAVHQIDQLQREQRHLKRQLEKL
Sequence	E-score
ATATCACG	0.287
CACCCGCC	0.274
CTCCACGC	0.342
CCCCCCCC	0.357
ACGCACAC	0.302
CACGCAAA	0.264
ACATGGCC	0.317
TCGTGGCA	0.273

Block 2
Target: RING finger protein unkempt homolog, zinc fingers 1-6, GST-SBP tag (UNK, Homo sapiens, UniProt Q9C0B0, residues 30-357)
Method: RNA Bind-n-Seq
Form: RNA
Matrix: in vitro
Concentration: not given
Notes: RNA with constant flanks, ends assumed
Reference: input RNA pool
Direction: higher = stronger binding
Construct (chain): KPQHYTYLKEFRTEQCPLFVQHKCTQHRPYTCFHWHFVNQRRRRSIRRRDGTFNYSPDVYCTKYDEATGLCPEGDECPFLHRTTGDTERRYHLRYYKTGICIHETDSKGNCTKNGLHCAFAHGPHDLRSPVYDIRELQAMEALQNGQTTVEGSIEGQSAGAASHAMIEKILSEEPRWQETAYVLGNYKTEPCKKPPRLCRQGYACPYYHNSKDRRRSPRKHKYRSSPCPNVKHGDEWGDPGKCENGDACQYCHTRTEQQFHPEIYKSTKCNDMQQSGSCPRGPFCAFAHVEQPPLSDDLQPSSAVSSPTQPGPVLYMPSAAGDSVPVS
Sequence	bound/input enrichment
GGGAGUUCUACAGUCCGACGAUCUAAUAUUUUUGUGAACUGGUGUAAAUUGUUAAUGCAUAUAAGCUUGUGUAUUUUUGUAAACCGUUUUGUGAUUUACUUCUUGCCCCCUGUGUAAAUAUUUACAGUCUCAUUUCUUCCAAACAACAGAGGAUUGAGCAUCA	0.305 ratio
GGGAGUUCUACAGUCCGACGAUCGAAAUGGCAACCACAGAGGAUGCUCAGGCCGCAGUGGAUUAUUACACAACCACACCAGCGUCCGUAUUUGGCAAGCCAGUGAGAGUUCAUUUAUCCCAGAAGUAUAAAAGAAUAAAGAAACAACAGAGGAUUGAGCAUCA	0.502 ratio
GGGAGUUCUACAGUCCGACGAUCUUUUUUUUUCCCGGGGUGGGGGGUGUUCUUUGGGGGAAUUUUUUUUUUAAUGGAAGCUUCCCGCAAGCCCUAUGCCCCACCCCAAUCAACCUCUUUGCUUUCUUCUUUAAAAAAAGGAAACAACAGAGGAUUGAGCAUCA	0.0728 ratio
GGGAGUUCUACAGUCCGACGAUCAAGACUGAAUUAAGUGAAAUUGUACUUUAUUUUACAUAUAUAAUGUCAUGUACAACUUGGCUCCGACCGUGUUUUUGGGGGGGAUUUUUGUUUUGGUGUUUAUUUUUACACAAGGAAAGUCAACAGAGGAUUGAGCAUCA	0.555 ratio
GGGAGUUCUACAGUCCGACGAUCGAAGAAGGCUGCUUUGCGUUUGUUUUUAAGACGUUAACAUUAUUUUUUUGGUUGUACUGCACCCGGAAAUCUCUCCUACCCCUCCUUUUCUCUUCUCUCCCUAGAUAAAAAUAAAAGGCCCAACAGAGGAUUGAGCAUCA	5.36 ratio
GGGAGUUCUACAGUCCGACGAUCCAUCUAUACAAUUUUAAAAAUACUUCCUCAUAGGAUGCUUUGGCCCUUCAUCUAUUUAAUCACCGCUACAUACCUAUUUUUUAUAAGUAGCAGUACACAUUCAAAGGGGUAUUCCUAGCUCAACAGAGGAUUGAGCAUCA	6.8 ratio
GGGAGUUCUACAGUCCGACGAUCAAAAACUUGGCCCUUAUGACACACAUCACAACUGAUAUGGAAGAUGGACCCAUUGUUAAAUCCGCCAGUAACUUGGGAGUAGAAGAUGUGAAUUUAUUAUGUGGGGAAGAGCUCUCUUACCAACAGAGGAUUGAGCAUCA	0.18 ratio
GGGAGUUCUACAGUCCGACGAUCCAGUUUGGAGCCACAGACCUGGAUGUGGCCAACUUCUACGUUUCCCAACUGCAGACUCCCACCGGUGUACAGGCCGAGGCCUUGCUUCGAUGUAGUGACAUAAUUUCCUAUUCUUUCAAGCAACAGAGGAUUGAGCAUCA	0.453 ratio

Block 3
Target: Mitogen-activated protein kinase kinase kinase 3 (MAP3K3, Homo sapiens, UniProt Q99759)
UniProt Q99759, sequence (whole entry, looked up): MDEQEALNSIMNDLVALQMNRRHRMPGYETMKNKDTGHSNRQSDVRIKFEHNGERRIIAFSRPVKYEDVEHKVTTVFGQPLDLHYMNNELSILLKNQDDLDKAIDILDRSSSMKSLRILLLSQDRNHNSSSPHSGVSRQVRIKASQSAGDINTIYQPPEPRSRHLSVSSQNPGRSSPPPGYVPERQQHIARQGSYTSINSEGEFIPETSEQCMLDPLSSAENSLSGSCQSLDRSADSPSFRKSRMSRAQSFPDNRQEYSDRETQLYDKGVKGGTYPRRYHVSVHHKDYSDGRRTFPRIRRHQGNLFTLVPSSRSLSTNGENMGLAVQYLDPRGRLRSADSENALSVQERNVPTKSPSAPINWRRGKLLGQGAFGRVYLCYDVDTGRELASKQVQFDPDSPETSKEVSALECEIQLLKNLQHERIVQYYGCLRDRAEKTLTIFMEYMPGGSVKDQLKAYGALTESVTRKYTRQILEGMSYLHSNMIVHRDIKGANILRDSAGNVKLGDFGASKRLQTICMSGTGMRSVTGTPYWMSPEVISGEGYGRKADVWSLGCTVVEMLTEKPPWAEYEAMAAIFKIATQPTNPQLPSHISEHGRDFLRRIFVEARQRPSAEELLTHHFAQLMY
Effect on: enzyme activity
Action: inhibitor
Concentration: 0.5 µM
Reference: control
Structure (SMILES)	remaining activity [%]
CO[C@H]1C[C@@H]2CC[C@@H](C)[C@@](O)(O2)C(=O)C(=O)N2CCCC[C@H]2C(=O)O[C@H]([C@H](C)C[C@@H]2CC[C@@H](O)[C@H](OC)C2)CC(=O)[C@H](C)/C=C(\C)[C@@H](O)[C@@H](OC)C(=O)[C@H](C)C[C@H](C)/C=C/C=C/C=C/1C	101
O=S(=O)(c1cccc2cnccc12)N1CCCNCC1	89.3
CN(C)c1ccc(C=C2C(=O)Nc3ccccc32)cc1	104
OCC(O)CCON=C1C(c2c(O)[nH]c3ccccc23)=Nc2ccccc21 (stereo not drawn)	87.8
COc1cc2ncnc(Nc3ccc(F)c(Cl)c3)c2cc1OCCCN1CCOCC1	107
Cc1nc(-c2ccccc2)c(-c2ccncc2)o1	101
Cn1sc(=O)n(Cc2ccccc2)c1=O	94.2

Block 4
Structure (SMILES): NS(=O)(=O)c1cc(NC(=O)Cc2ccccc2)ccc1Oc1cccc(Cl)c1
Effect on: cell-free assay
Method: competition with immobilised ligand
Concentration: 1 µM
target	remaining binding [%]
EPHA5 (Homo sapiens, UniProt P54756)	62
PIK3CD (Homo sapiens, UniProt O00329)	93
BMX (Homo sapiens, UniProt P51813)	94
PRKCD (Homo sapiens, UniProt Q05655)	100
ERBB3 (Homo sapiens, UniProt P21860)	100
PIK3CA (Homo sapiens, UniProt P42336, H1047Y)	81
DYRK1A (Homo sapiens, UniProt Q13627)	95
Tyrosine-protein kinase ABL1, phosphorylated (ABL1, Homo sapiens, UniProt P00519, Q252H)	55
CDKL5 (Homo sapiens, UniProt O76039)	83
NEK11 (Homo sapiens, UniProt Q8NG66)	100
DDR1 (Homo sapiens, UniProt Q08345)	94
KIT (Homo sapiens, UniProt P10721, V559D/V654A)	100
PKN1 (Homo sapiens, UniProt Q16512)	100

For quick reference, copied from above (block 4):
target	remaining binding [%]
ERBB3 (Homo sapiens, UniProt P21860)	100
Tyrosine-protein kinase ABL1, phosphorylated (ABL1, Homo sapiens, UniProt P00519, Q252H)	55
PRKCD (Homo sapiens, UniProt Q05655)	100
PKN1 (Homo sapiens, UniProt Q16512)	100
